Measurements of several laboratories.
Numbered parts are unrelated; each lists some results of a single study.

Sample 1
Target: Replicase polyprotein 1ab, main protease (rep, Severe acute respiratory syndrome coronavirus 2, UniProt P0DTD1)
Read-out: enzyme activity
Action: inhibitor
Concentration: 20 µM
Notes: primary screen
Endpoint: inhibition
COc1ccc2c(c1)nc([S+]([O-])Cc1ncc(C)c(OC)c1C)[n]2[Mg][n]1c([S+]([O-])Cc2ncc(C)c(OC)c2C)nc2cc(OC)ccc21 (stereo not shown): 94.7%
COc1ccc(OC)c2c(=S)c3ccccc3[nH]c12: 78.7%
C[C@H]1COC2=C1C(=O)C(=O)c1c2ccc2c1CCCC2(C)C: 79.7%

Sample 2
Target: Interferon regulatory factor 7, full length, phosphomimetic (IRF7, Homo sapiens, UniProt Q92985, residues 1-503, S101K/S471D/S472D/S475D/S476D/S477D/S483D/S484D/S487D)
Technique: protein-binding microarray
Molecule type: double-stranded DNA, one strand shown
Sample: in vitro
Concentration: 250 nM
Notes: 60-bp whole probe
With: salmon DNA 0.4 mg/ml
Reference: random background probes
Direction: higher = stronger binding
Endpoint: log fluorescence
Shared flanks, not repeated: GCCTAGCAC … GTCTTGATTCGCTTGACGCTGCTG
Construct (chain): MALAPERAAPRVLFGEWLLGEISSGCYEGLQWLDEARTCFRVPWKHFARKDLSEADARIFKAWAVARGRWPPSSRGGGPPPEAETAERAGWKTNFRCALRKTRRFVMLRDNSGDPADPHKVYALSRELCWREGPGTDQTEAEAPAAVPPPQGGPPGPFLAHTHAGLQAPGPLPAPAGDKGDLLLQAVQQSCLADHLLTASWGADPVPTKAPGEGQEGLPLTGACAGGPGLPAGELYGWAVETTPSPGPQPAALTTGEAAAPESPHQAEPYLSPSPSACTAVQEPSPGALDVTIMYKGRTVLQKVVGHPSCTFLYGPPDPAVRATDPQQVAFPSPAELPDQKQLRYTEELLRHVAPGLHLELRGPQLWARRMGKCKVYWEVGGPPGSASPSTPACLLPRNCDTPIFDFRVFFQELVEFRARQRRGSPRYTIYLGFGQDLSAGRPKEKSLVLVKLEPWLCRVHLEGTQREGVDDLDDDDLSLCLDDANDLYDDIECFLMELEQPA
TCAGAGTTCTGTTGCAAACTGTGCTAG: -0.61 z-score
CTTCATGTTGCTCTCCGGGGGTGCTAG: 0.848 z-score
GACGGTCTCGGACTTGGGACGTGCTAG: -0.035 z-score
TTAGGTATCGACTATCGGTGAGTGCTA: 0.127 z-score
TCAAATTCTCTTTTCACACTGTGCTAG: 1.32 z-score
TTAGTACTGGGGTATCGATTAGTGCTA: 0.263 z-score
TTAGATTGCAGACTGGATTAGTGCTAG: -0.33 z-score
TCATATATTCATATATAACTGTGCTAG: 0.437 z-score

Sample 3
Target: Histone acetyltransferase KAT6A, winged helix 2, GST fusion (KAT6A, Homo sapiens, UniProt Q92794, residues 85-181)
Technique: protein binding microarray
Molecule type: double-stranded DNA, one strand shown
Sample: in vitro
Concentration: not given
Notes: 8-mer, flanks averaged, mean of 2 arrays, mostly near background
Reference: not given
Direction: higher = stronger binding
Endpoint: E-score
Residues (chain): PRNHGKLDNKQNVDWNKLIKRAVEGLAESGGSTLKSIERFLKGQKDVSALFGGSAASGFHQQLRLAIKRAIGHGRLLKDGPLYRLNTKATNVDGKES
CTTTATTA: 0.0938
CACTATTA: -0.0668
TGGGCAAA: 0.0862
TATAGCAA: 0.085
CCTCCGGC: 0.199
CATGGTCG: 0.0411
ACCAGACC: -0.185
AGTTTTGA: 0.05

Sample 4
Target: Fragile X messenger ribonucleoprotein 1, C-terminal low-complexity region (Fmr1, Mus musculus, UniProt P35922)
Technique: RNA Bind-n-Seq
Molecule type: RNA
Sample: in vitro
Concentration: 200 nM
Notes: whole 134-nt RNA, ends assumed
With: 150 mM LiCl
Reference: input library
Direction: higher = stronger binding
Endpoint: log2 enrichment
Library: 7-deaza-guanosine replaces G
Shared flanks, not repeated: GGGAGUUCUACAGUCCGACGAUC … UGGAAUUCUCGGGUGUCAAGG
GUCCUGUGCUACACAUCGUAUGUACCGAAUCGGGGAAAGGGGAAAAAAAGGGGUGGGGAAAGUAUUAUGUUACGCCGUUCGGAUCUGCAC: -0.498
UUAAGGAAGGACACUGAGUCAUGCACAAGUCCUUGCCUUCUUGGUGCCCCUCGGAAAGCACAAGACCCCUCCUCUGCUGGGUGUGAUCAA: 1.38
UGGGAGGUGGAUUUUGUUUAUUUUUUUAGCUCAUUUCCAGGGGUGGGAAUUUUUUUUUAAUAUGUGUCAUGAAUAUAGUUGUUUUUGAAA: 0.0943
CCUGUGCUACACAUCGUAUGUACCGAAUCGGGGUUUUUUUGGGGAAAAAGGGGAAAGGGGAAAGUAUUAUGUUACGCCGUUCGGAUCUGC: -1.3
ACCAUGCAGCUGGGCAUCUUUGGGAAGUGGGGCAAGGGGGGGAUAGGGAGGGGGGUAACACUUUGGGAACAGGUGGUCCCAGGUCGUUUC: 1.53
ACCAUGCAGGUGGGCAUCUUUGGGAAGUGGGGCAAGGGGGGGAUAGGGAGGGGGCUAACACUUUGGGAACAGGUGGUCCCAGGUCGUUUC: 1.27
UGGGAGUUGGAUUUUGUUUAUUUUUUUAGCUCAUUUCCAGGGGUGGGAAUUUUUUUUUAAUAUGUGUCAUGAAUAAAGUUGUUUUUGAAA: 0.408
CAAGUCCUGUGCUACACAUCGUAUGUACCGAAUCGGUUUUUGGUUUGGAAAAAGGAAAGUAUUAUGUUACGCCGUUCGGAUCUGCACUUC: -1.67

Sample 5
Target: Replicase polyprotein 1ab, nsp13 helicase (rep, Severe acute respiratory syndrome coronavirus 2, UniProt P0DTD1)
Action: inhibitor
Concentration: 20 µM
Endpoint: inhibition
COc1cc2c(Oc3ccc(NC(=O)C4(C(=O)Nc5ccc(F)cc5)CC4)cc3F)ccnc2cc1OCCCN1CCOCC1: -1.46%
CC(C)(N)CC12CC3CC(CC(C3)C1)C2: 4.53%
Clc1cccc(-c2nnnn2Cc2cccnc2)c1Cl: -0.77%
Nc1nccc(Oc2ccc(NC(=O)c3cn(COP(=O)(O)O)cc(-c4ccc(F)cc4)c3=O)cc2F)c1Cl: 7.8%
C[N+]1(CCCCC[N+]2(C)CCCC2)CCCC1: 2.4%
O=C(O)c1cccnc1Nc1cccc(C(F)(F)F)c1: -5.19%
O=C(O)CCCCCCNC1c2ccccc2CCc2ccccc21: 4.17%
CCN1CCC[C@H]1CNC(=O)c1c(O)c(Cl)cc(Cl)c1OC: -3.03%
CC[N+](C)(C)c1cccc(O)c1: 4.97%
Cc1c(N)cccc1Cn1ccc(OCCc2cccs2)cc1=O: 46.3%
CC1CC(OC(=O)C(O)c2ccccc2)CC(C)(C)N1C (stereo not shown): 3.75%
CO[C@@H]1[C@@H](OC(N)=O)[C@@H](O)[C@H](Oc2ccc3c(O)c(NC(=O)c4ccc(O)c(CC=C(C)C)c4)c(=O)oc3c2C)OC1(C)C: 3.6%
COc1cccc2c1C(=O)c1c(O)c3c(c(O)c1C2=O)C[C@@](O)(C(=O)CO)C[C@@H]3O[C@H]1C[C@H](N2CCO[C@H](OC)C2)[C@H](O)[C@H](C)O1: 92.3%
O=C1CCC(N2C(=O)c3ccccc3C2=O)C(=O)N1 (stereo not shown): 2.74%
CCC[C@H](Nc1nc(-c2ccc(NC(=O)NCC)c(OC)c2)ncc1C)c1cccnc1: -1.69%
C#Cc1cccc(Nc2ncnc3cc(OCCOC)c(OCCO)cc23)c1: 2.1%
Clc1ccc(C(Cn2ccnc2)OCc2ccc(Sc3ccccc3)cc2)c(Cl)c1 (stereo not shown): 5.59%
CCn1cc(C(=O)O)c(=O)c2ccc(C)nc21: 0.97%
C[C@@H]1CC[C@@]2(NC1)O[C@H]1C[C@H]3[C@@H]4CC=C5C[C@@H](O[C@@H]6O[C@H](CO)[C@@H](O[C@@H]7O[C@@H](C)[C@H](O)[C@@H](O)[C@H]7O)[C@H](O)[C@H]6O[C@@H]6O[C@@H](C)[C@H](O)[C@@H](O)[C@H]6O)CC[C@]5(C)[C@H]4CC[C@]3(C)[C@H]1[C@@H]2C: 19.9%
O=C(Nc1ccc(-c2ccnc(Nc3ccc(N4CCOCC4)cc3)n2)cc1)C1CCCN1 (stereo not shown): 17.7%
CC(=O)N[C@@H]1[C@@H](O)[C@H](O)[C@@H](CO)O[C@@H]1O: 3.74%
Nc1nccc(-c2ccc3noc(-c4ccc(Cl)cc4)c3c2)n1: 11.1%
CN1CCCC1CCSc1ccc(O)cc1 (stereo not shown): 0.65%
O=C1C[C@@H](c2ccc(O)cc2)Oc2cc(O)ccc21: 0.32%
CN1Cc2ccccc2[C@@H]2c3cccc4[nH]cc(c34)C[C@H]21: 30%

Sample 6
Cell line: HEK-293T-ACE2
Concentration: concentration not given
Reference: vehicle
Endpoint: cell number
Cc1nc2n(c(=O)c1CCN1CCC(c3noc4cc(F)ccc34)CC1)CCCC2: 99.5%
CO[C@H]1C[C@@H]2CC[C@@H](C)[C@@](O)(O2)C(=O)C(=O)N2CCCC[C@H]2C(=O)O[C@H]([C@H](C)C[C@@H]2CC[C@@H](OCCO)[C@H](OC)C2)CC(=O)[C@H](C)/C=C(\C)[C@@H](O)[C@@H](OC)C(=O)[C@H](C)C[C@H](C)/C=C/C=C/C=C/1C: 99.2%
O=C(O)C(=O)O.[NH-][C@@H]1CCCC[C@H]1[NH-].[Pt+2]: 100%

Repeated from above (sample 3):
CCTCCGGC: 0.199
CTTTATTA: 0.0938
CACTATTA: -0.0668
AGTTTTGA: 0.05
TATAGCAA: 0.085
TGGGCAAA: 0.0862
ACCAGACC: -0.185
